# Measurements of several laboratories.
# Lines come from different studies, so protocols differ. ± marks the error that the study gave.
# USP33 ZnF-UBD domain: Ubiquitin carboxyl-terminal hydrolase 33, ZnF-UBD domain (USP33, Homo sapiens, UniProt Q8TEY7)
# UniProt Q8TEY7, sequence (whole entry, looked up): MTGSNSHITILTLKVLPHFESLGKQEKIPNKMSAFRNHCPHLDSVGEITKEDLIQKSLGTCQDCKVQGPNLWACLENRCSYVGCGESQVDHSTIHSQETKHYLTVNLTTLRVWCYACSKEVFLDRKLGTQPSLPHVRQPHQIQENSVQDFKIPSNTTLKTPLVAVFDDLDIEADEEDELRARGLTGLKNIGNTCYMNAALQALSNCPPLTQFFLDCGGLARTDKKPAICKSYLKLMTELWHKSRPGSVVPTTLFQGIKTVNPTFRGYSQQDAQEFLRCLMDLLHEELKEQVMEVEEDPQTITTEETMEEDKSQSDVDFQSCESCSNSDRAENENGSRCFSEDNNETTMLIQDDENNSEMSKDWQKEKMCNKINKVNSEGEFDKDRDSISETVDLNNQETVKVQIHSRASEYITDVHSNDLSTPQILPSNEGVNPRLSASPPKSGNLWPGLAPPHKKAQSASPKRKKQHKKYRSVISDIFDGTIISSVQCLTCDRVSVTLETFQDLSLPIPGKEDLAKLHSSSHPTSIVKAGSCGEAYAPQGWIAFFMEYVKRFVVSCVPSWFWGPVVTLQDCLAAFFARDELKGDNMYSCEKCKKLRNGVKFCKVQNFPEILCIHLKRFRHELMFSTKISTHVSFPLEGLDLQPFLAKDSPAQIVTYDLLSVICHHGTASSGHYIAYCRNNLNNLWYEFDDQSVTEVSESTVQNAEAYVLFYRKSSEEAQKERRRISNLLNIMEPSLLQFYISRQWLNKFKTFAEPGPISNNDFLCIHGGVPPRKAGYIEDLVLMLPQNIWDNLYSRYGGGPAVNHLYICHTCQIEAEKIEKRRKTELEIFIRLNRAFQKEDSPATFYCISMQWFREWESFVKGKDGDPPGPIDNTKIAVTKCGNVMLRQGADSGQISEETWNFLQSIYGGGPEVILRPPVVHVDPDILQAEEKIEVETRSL
# Cereblon/Ikaros: Cereblon/Ikaros (Homo sapiens, UniProt Q13422+Q96SW2)
# IDE: Insulin-degrading enzyme (IDE, Homo sapiens, UniProt P14735)
# UniProt P00383, sequence (whole entry, looked up): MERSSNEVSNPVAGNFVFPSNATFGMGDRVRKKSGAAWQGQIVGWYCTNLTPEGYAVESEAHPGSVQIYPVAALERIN
# UniProt Q13336, sequence (whole entry, looked up): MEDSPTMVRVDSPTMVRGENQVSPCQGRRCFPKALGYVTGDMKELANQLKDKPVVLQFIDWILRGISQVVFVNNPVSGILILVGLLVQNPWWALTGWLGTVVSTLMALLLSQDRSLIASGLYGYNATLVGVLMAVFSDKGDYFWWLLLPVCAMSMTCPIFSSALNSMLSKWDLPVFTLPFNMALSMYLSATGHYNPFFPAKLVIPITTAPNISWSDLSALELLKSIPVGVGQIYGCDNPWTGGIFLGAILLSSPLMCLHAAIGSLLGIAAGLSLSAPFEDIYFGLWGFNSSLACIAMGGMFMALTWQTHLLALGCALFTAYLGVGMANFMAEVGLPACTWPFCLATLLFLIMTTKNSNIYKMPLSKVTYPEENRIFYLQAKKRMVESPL
# UniProt P35414, sequence (whole entry, looked up): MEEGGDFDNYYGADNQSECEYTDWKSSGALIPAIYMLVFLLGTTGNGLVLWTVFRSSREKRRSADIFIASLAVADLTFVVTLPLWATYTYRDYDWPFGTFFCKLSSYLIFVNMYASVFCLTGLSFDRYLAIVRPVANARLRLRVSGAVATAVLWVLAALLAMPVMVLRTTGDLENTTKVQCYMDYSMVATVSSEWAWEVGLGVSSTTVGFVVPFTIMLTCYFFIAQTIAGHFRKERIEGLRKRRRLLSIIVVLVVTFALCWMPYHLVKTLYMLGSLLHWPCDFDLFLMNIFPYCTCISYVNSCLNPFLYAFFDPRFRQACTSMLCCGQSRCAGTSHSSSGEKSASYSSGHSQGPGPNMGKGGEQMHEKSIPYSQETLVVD
# UniProt P39146, sequence (whole entry, unmodified, looked up): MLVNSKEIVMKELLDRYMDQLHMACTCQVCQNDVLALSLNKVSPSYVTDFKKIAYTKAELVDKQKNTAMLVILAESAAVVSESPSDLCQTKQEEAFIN
Compound,target,assay,system,conditions,measurement,result
NS(=O)(=O)c1nnc(NC(=O)CN2CC3CCC(C2)O3)s1,Enterococcus faecium γ-carbonic anhydrase,"CO2 hydration, inhibitor, stopped-flow kinetics",,,Ki,0.0681 µM
NC(=O)[C@H]1CCCN1C(=O)CCC(=O)O,USP33 ZnF-UBD domain,,,,Kd,> 1000 µM
COc1ccc(-c2nc3ccc(C(=O)N4CCOCC4)cc3[nH]2)cc1Br,"Dihydrofolate reductase type 2 (Escherichia coli, UniProt P00383)",enzyme activity,,pH 7,IC50,> 630 µM
CCC(C)(NCCc1ccc(C(F)(F)F)cc1)c1cccc(NC2=CC(=O)N(C3CCC(=O)NC3=O)C2=O)c1 (stereo not shown),Cereblon/Ikaros,degrader,,,DC50,40 ± 6 nM
COc1cccc(-c2ccc([C@@H]3[C@@H](CO)N4CCCCN(S(=O)(=O)c5ccccc5C)C[C@@H]34)cc2)c1,IDE,"enzyme activity, inhibitor, fluorescence kinetic",,added: Mca-RPPGFSAFK(Dnp)-OH substrate,EC50,0.49 µM
NS(=O)(=O)c1nnc(NC(=O)CCC2CCCCO2)s1 (stereo not shown),Enterococcus faecium γ-carbonic anhydrase,"CO2 hydration, inhibitor, stopped-flow kinetics",,,Ki,0.181 µM
CCC(C)(NCCc1cccc(C(F)(F)F)c1Cl)c1cccc(NC2=CC(=O)N(C3CCC(=O)NC3=O)C2=O)c1 (stereo not shown),Cereblon/Ikaros,"degrader, HiBiT luminescence, refers to: endogenous HiBiT-tagged protein",,,DC50,60 ± 8 nM
Cc1cccc(-c2ccc([C@@H]3[C@H](CO)N4CCCCN(S(=O)(=O)c5ccccc5F)C[C@@H]34)cc2)c1,IDE,"enzyme activity, inhibitor, fluorogenic kinetic",,added: Mca-RPPGFSAFK(Dnp)-OH substrate,EC50,0.55 µM
CCC(CC)(NCCc1ccc(C(F)(F)F)c(Cl)c1)c1cccc(NC2=CC(=O)N(C3CCC(=O)NC3=O)C2=O)c1 (stereo not shown),Cereblon/Ikaros,"degrader, HiBiT luminescence, refers to: endogenous HiBiT-tagged protein",,,DC50,100 ± 36 nM
Nc1nc2c(ncn2[C@@H]2O[C@@H]3CO[P@](=O)(O)O[C@H]4[C@@H](O)[C@H](n5cnc6c(=O)[nH]c(N)nc65)O[C@@H]4CO[P@](=O)(O)O[C@H]3[C@H]2O)c(=O)[nH]1,"Competence protein ComFB (comFB, Bacillus subtilis, UniProt P39146, K41A)",,,,Kd,0.45 ± 0.1 µM
O=C(O)CCC(=O)N1CCc2ccccc21,USP33 ZnF-UBD domain,,,,Kd,> 1000 µM
Cc1ccccc1-c1ccc([C@H]2[C@@H]3CN(C(=O)C4CCCCC4)C[C@H]2N3)cc1,IDE,"enzyme activity, inhibitor, fluorogenic kinetic",,added: Mca-RPPGFSAFK(Dnp)-OH substrate,EC50,1.5 µM
CSc1nc(C)c(CCC(=O)O)c(=O)[nH]1,USP33 ZnF-UBD domain,,,,Kd,211 µM
O=C1CCC(N2C(=O)C=C(Nc3cccc(C4(NCCc5ccc(C(F)(F)F)c(Cl)c5)CCCC4)c3)C2=O)C(=O)N1 (stereo not shown),Cereblon/Ikaros,degrader,human cells,,DC50,40 ± 4 nM
CC1(C)CCN(CC(=O)Nc2nnc(S(N)(=O)=O)s2)CC1,Enterococcus faecium γ-carbonic anhydrase,"CO2 hydration, inhibitor, stopped-flow kinetics",,,Ki,0.135 µM
O=C1CCC(N2Cc3cc(NC(=O)C4CCCCC4)ccc3C2=O)C(=O)N1 (stereo not shown),Cereblon/Ikaros,"degrader, live-cell HiBiT kinetic",Jurkat Ikaros-HiBiT LgBiT,,DC50,> 10000 nM
CCC(C)(NCCc1ccc(C(F)(F)F)c(Cl)c1)c1cccc(NC2=CC(=O)N(C3CCC(=O)NC3=O)C2=O)c1 (stereo not shown),Cereblon/Ikaros,"degrader, HiBiT luminescence, refers to: endogenous HiBiT-tagged protein",,,DC50,40 ± 7 nM
O=C1CCC(N2Cc3cc(Nc4noc5cc(F)ccc45)ccc3C2=O)C(=O)N1 (stereo not shown),Cereblon/Ikaros,"degrader, live-cell HiBiT kinetic",Jurkat Ikaros-HiBiT LgBiT,,DC50,> 10000 nM
NS(=O)(=O)c1cnc(NC(=O)CCc2ccccc2)s1,Enterococcus faecium γ-carbonic anhydrase,"CO2 hydration, inhibitor, stopped-flow kinetics",,,Ki,0.904 µM
CCC(C)(NCCc1cc(C(F)(F)F)cc(C(F)(F)F)c1)c1cccc(NC2=CC(=O)N(C3CCC(=O)NC3=O)C2=O)c1 (stereo not shown),Cereblon/Ikaros,"degrader, HiBiT luminescence, refers to: endogenous HiBiT-tagged protein",,,DC50,690 ± 310 nM
NS(=O)(=O)c1nnc(NC(=O)C2CCC3(CCCC3)CC2)s1,Enterococcus faecium γ-carbonic anhydrase,"CO2 hydration, inhibitor, stopped-flow kinetics",,,Ki,0.297 µM
Cc1cccc(-c2ccc([C@@H]3[C@@H](CO)N4C/C=C\CN(S(=O)(=O)c5cn(C)nc5C(F)(F)F)C[C@@H]34)cc2)c1C,IDE,"enzyme activity, inhibitor, fluorescence kinetic",,added: Mca-RPPGFSAFK(Dnp)-OH substrate,EC50,0.065 µM
O=C1CCC(N2C(=O)c3cccc4c(Cc5cnn(C6CCN(C(=O)C7(O)CCC7)CC6)c5)ccc2c34)C(=O)N1 (stereo not shown),Cereblon/Ikaros,"protein degradation, degrader, immunoblot",human PBMC,24 h,DC50,< 0.05 nM
O=C(O)Cc1nc2ccccc2[nH]1,USP33 ZnF-UBD domain,,,,Kd,> 1000 µM
NS(=O)(=O)c1nnc(NC(=O)CC2CC3CCC2C3)s1 (stereo not shown),Enterococcus faecium γ-carbonic anhydrase,"CO2 hydration, inhibitor, stopped-flow kinetics",,,Ki,0.241 µM
NC[C@@H]1O[C@H](O[C@H]2[C@@H](O)[C@H](O[C@@H]3[C@@H](O)[C@H](N)C[C@H](N)[C@H]3O[C@H]3O[C@H](CN)[C@@H](O)[C@H](O)[C@H]3N)O[C@@H]2CO)[C@H](N)[C@@H](O)[C@@H]1O,(CUG)10 RNA,SPR,,,Kd,0.346 µM
Cc1ccc(CCC(=O)Nc2nnc(S(N)(=O)=O)s2)cc1,Enterococcus faecium γ-carbonic anhydrase,"CO2 hydration, inhibitor, stopped-flow kinetics",,,Ki,0.0623 µM
O=C(O)CCn1c(=O)oc2ccccc21,USP33 ZnF-UBD domain,,,,Kd,> 1000 µM
COc1ccccc1-c1ccc([C@H]2[C@@H](CO)N3CCCCN(C(=O)c4cccnc4)C[C@H]23)cc1,IDE,"enzyme activity, inhibitor, fluorogenic kinetic",,added: Mca-RPPGFSAFK(Dnp)-OH substrate,EC50,13.2 µM
Cc1ccccc1C(=O)Nc1ccc2c(c1)CN(C1CCC(=O)NC1=O)C2=O (stereo not shown),Cereblon/Ikaros,"degrader, live-cell HiBiT kinetic",Jurkat Ikaros-HiBiT LgBiT,,DC50,> 10000 nM
Cc1cccc(-c2ccc([C@@H]3[C@@H](CO)N4C/C=C\CN(S(=O)(=O)c5cccnc5C)C[C@@H]34)cc2)c1C,IDE,"enzyme activity, inhibitor, fluorescence kinetic",,added: Mca-RPPGFSAFK(Dnp)-OH substrate,EC50,0.022 µM
O=C(O)CCc1ccno1,USP33 ZnF-UBD domain,,,,Kd,> 1000 µM
Cc1cccc(CC(=O)Nc2nnc(S(N)(=O)=O)s2)c1,Enterococcus faecium γ-carbonic anhydrase,"CO2 hydration, inhibitor, stopped-flow kinetics",,,Ki,0.11 µM
CC(=S)Nc1ccccc1,"Urea transporter 1 (Homo sapiens, UniProt Q13336)",urea transport inhibition,,added: thiourea,Ki,1000 µM
Cc1ccccc1S(=O)(=O)N1CCCCN2[C@H](CO)[C@@H](c3ccc(-c4ccccc4)cc3)[C@@H]2C1,IDE,"enzyme activity, inhibitor, fluorescence kinetic",,added: Mca-RPPGFSAFK(Dnp)-OH substrate,EC50,0.41 µM
CCC(C)(NCCc1ccccc1)c1cccc(NC2=CC(=O)N(C3CCC(=O)NC3=O)C2=O)c1 (stereo not shown),Cereblon/Ikaros,"degrader, HiBiT luminescence, refers to: endogenous HiBiT-tagged protein",,,DC50,120 ± 28 nM
O=C1CCC(N2Cc3cc(NC(=O)c4ccccc4)ccc3C2=O)C(=O)N1 (stereo not shown),Cereblon/Ikaros,"degrader, live-cell HiBiT kinetic",Jurkat Ikaros-HiBiT LgBiT,,DC50,> 10000 nM
O=C(O)CCc1nc2ccccc2c2nc(Cc3ccccc3)nn12,USP33 ZnF-UBD domain,,,,Kd,> 1000 µM
COc1cccc(-c2ccc([C@@H]3[C@@H](CO)N4CCCCN(CC5CC5)C[C@@H]34)cc2)c1,IDE,"enzyme activity, inhibitor, fluorogenic kinetic",,added: Mca-RPPGFSAFK(Dnp)-OH substrate,EC50,22.5 µM
Nc1ncnc2c1ncn2[C@@H]1O[C@H](COP(=O)(O)OP(=O)(O)O)[C@@H](O)[C@H]1O,"klp-6 (Caenorhabditis elegans, UniProt G5EFQ4, I117M/S116T/V118M)","microtubule gliding velocity, competitive inhibitor, single-molecule TIRF",,"pH 7.4, added: Mg-ATP varied, porcine microtubules",Ki,11.9 ± 0.3 µM
O=C(O)CCc1cn2cccnc2n1,USP33 ZnF-UBD domain,,,,Kd,> 1000 µM
CCOCc1nc(O)c(-c2nnc(Cc3ccc(Cl)cn3)o2)c(O)c1-c1c(OC)cccc1OC,"Apelin receptor (APLNR, Homo sapiens, UniProt P35414)","β-arrestin2 recruitment, agonist, BRET",HEK293,,EC50,0.00823 ± 0.00048 µM
CCC(C)(NCCc1cccc(Cl)c1)c1cccc(NC2=CC(=O)N(C3CCC(=O)NC3=O)C2=O)c1 (stereo not shown),Cereblon/Ikaros,"degrader, HiBiT luminescence, refers to: endogenous HiBiT-tagged protein",,,DC50,90 ± 16 nM

# Repeated from above:
Compound,target,assay,system,conditions,measurement,result
O=C1CCC(N2Cc3cc(NC(=O)c4ccccc4)ccc3C2=O)C(=O)N1 (stereo not shown),Cereblon/Ikaros,"degrader, live-cell HiBiT kinetic",Jurkat Ikaros-HiBiT LgBiT,,DC50,> 10000 nM
O=C(O)CCc1nc2ccccc2c2nc(Cc3ccccc3)nn12,USP33 ZnF-UBD domain,,,,Kd,> 1000 µM
COc1cccc(-c2ccc([C@@H]3[C@@H](CO)N4CCCCN(CC5CC5)C[C@@H]34)cc2)c1,IDE,"enzyme activity, inhibitor, fluorogenic kinetic",,added: Mca-RPPGFSAFK(Dnp)-OH substrate,EC50,22.5 µM
Nc1ncnc2c1ncn2[C@@H]1O[C@H](COP(=O)(O)OP(=O)(O)O)[C@@H](O)[C@H]1O,"klp-6 (Caenorhabditis elegans, UniProt G5EFQ4, I117M/S116T/V118M)","microtubule gliding velocity, competitive inhibitor, single-molecule TIRF",,"pH 7.4, added: Mg-ATP varied, porcine microtubules",Ki,11.9 ± 0.3 µM
O=C(O)CCc1cn2cccnc2n1,USP33 ZnF-UBD domain,,,,Kd,> 1000 µM
CCOCc1nc(O)c(-c2nnc(Cc3ccc(Cl)cn3)o2)c(O)c1-c1c(OC)cccc1OC,"Apelin receptor (APLNR, Homo sapiens, UniProt P35414)","β-arrestin2 recruitment, agonist, BRET",HEK293,,EC50,0.00823 ± 0.00048 µM
